Published values gathered from unrelated publications.
Protocols differ between the studies behind these lines.

SMILES	tested on	assay	test system	setting	measurement	value
COc1ncc(-c2cn([C@@H]3O[C@](F)(COC(=O)C(C)C)[C@@H](OC(=O)C(C)C)[C@H]3OC(=O)C(C)C)cn2)cn1	Severe acute respiratory syndrome coronavirus 2	viral replication, inhibitor	A549-ACE2	24 h	IC50	> 100 µM
N[C@@H](CC(=O)N1CCn2c(nnc2C(F)(F)F)C1)Cc1cc(F)c(F)cc1F	Severe acute respiratory syndrome coronavirus 2	viral replication	Vero C1008	48 h	IC50	1.46 µM
CC(C)C(=O)OC[C@@]1(F)O[C@@H](n2cnc(-c3cnc(N)[nH]c3=O)c2)[C@H](OC(=O)C(C)C)[C@@H]1OC(=O)C(C)C	Severe acute respiratory syndrome coronavirus 2	viral replication, inhibitor	A549-ACE2	24 h	IC50	> 100 µM
C[C@]12C=CC(=O)C=C1CC[C@@H]1[C@@H]2[C@@H](O)C[C@@]2(C)[C@H]1C[C@H]1O[C@@H](C3CCCCC3)O[C@]12C(=O)CO	Severe acute respiratory syndrome coronavirus 2	viral replication, inhibitor	VeroE6/TMPRSS2	24 h	IC50	8.5 µM
COC[C@H]1OC(=O)c2coc3c2[C@@]1(C)C1=C(C3=O)[C@@H]2CCC(=O)[C@@]2(C)C[C@H]1OC(C)=O	Severe acute respiratory syndrome coronavirus 2	cytopathic effect	Vero C1008	72 h	IC50	0.941 µM
CCC[C@H](NC(=O)[C@@H]1[C@H]2CCC[C@H]2CN1C(=O)[C@@H](NC(=O)[C@@H](NC(=O)c1cnccn1)C1CCCCC1)C(C)(C)C)C(=O)C(=O)NC1CC1	Severe acute respiratory syndrome coronavirus 2	viral replication, inhibitor	HEK-293T		IC50	20.5 µM
Cn1cnc(Cn2c(=O)[nH]/c(=N\c3cc4cn(C)nc4cc3Cl)n(Cc3cc(F)c(F)cc3F)c2=O)n1	Severe acute respiratory syndrome coronavirus 2	viral replication	Vero C1008		IC50	0.172 µM
Cc1cccc(NC(=O)CS(=O)(=O)c2nc(-c3ccccc3)cn2-c2ccc(Cl)cc2)c1C	Severe acute respiratory syndrome coronavirus 2	viral entry		VSVΔG pseudovirus with Omicron S	IC50	30.8 µM
CC1=CCC(=C(C)C)CC1	Severe acute respiratory syndrome coronavirus 2	cytopathic effect	Vero C1008	72 h	IC50	~2.31 µM
CC(C)C(=O)OC[C@@]1(F)O[C@@H](n2cnc(-c3c[nH]c(=O)nc3N)c2)[C@H](OC(=O)C(C)C)[C@@H]1OC(=O)C(C)C	Severe acute respiratory syndrome coronavirus 2	viral replication, inhibitor	A549-ACE2	24 h	IC50	> 100 µM
CC(C)C(=O)OCC(=O)[C@@]12O[C@H](C3CCCCC3)O[C@@H]1C[C@H]1[C@@H]3CCC4=CC(=O)C=C[C@]4(C)[C@H]3[C@@H](O)C[C@@]12C	Severe acute respiratory syndrome coronavirus 2	viral replication, inhibitor	VeroE6/TMPRSS2	24 h	IC50	8.6 µM
COc1ncc(-c2cn([C@@H]3O[C@](F)(CO[P@@](=O)(N[C@@H](C)C(=O)OC(C)C)Oc4ccccc4)[C@@H](OC(=O)C(C)C)[C@H]3OC(=O)C(C)C)cn2)cn1	Severe acute respiratory syndrome coronavirus 2	viral replication, inhibitor	A549-ACE2	24 h	IC50	30.9 µM
CC[C@H](C)[C@H](NC(=O)[C@H](CC(C)C)NC(=O)[C@H](Cc1c[nH]c2ccccc12)NC(=O)[C@H](CCC(N)=O)NC(=O)[C@@H](NC(=O)[C@H](Cc1ccccc1)NC(=O)[C@H](C)NC(=O)[C@H](CCCCNC(=O)COCCOCCNC(=O)COCCOCCNC(=O)CC[C@H](NC(=O)CCCCCCCCCCCCCCCCCCC(=O)O)C(=O)O)NC(=O)[C@H](CCC(N)=O)NC(=O)[C@H](C)NC(=O)[C@@H](NC(=O)[C@H](CCCCN)NC(=O)[C@H](CC(=O)O)NC(=O)[C@H](CC(C)C)NC(=O)C(C)(C)NC(=O)[C@@H](NC(=O)[C@H](CO)NC(=O)[C@H](Cc1ccc(O)cc1)NC(=O)[C@H](CC(=O)O)NC(=O)[C@H](CO)NC(=O)[C@@H](NC(=O)[C@H](Cc1ccccc1)NC(=O)[C@@H](NC(=O)CNC(=O)[C@H](CCC(=O)O)NC(=O)C(C)(C)NC(=O)[C@@H](N)Cc1ccc(O)cc1)[C@@H](C)O)[C@@H](C)O)[C@@H](C)CC)[C@@H](C)CC)C(C)C)C(=O)N[C@@H](C)C(=O)NCC(=O)NCC(=O)N1CCC[C@H]1C(=O)N[C@@H](CO)C(=O)N[C@@H](CO)C(=O)NCC(=O)N[C@@H](C)C(=O)N1CCC[C@H]1C(=O)N1CCC[C@H]1C(=O)N1CCC[C@H]1C(=O)N[C@@H](CO)C(N)=O			healthy subjects, single ascending dose	0.25 mg	hypoglycaemia (glucose ≤70 mg/dL)	83.3%
CN(C)C(=N)N=C(N)N	Severe acute respiratory syndrome coronavirus 2	viral replication	Vero C1008	48 h	IC50	10.5 µM
Clc1ccc2nc(-c3ccccc3)c(-c3ccccc3)nc2c1	Severe acute respiratory syndrome coronavirus 2	viral entry, inhibitor		pseudovirus	IC50	21.3 µM
CCOc1nc(N)ncc1-c1cn([C@@H]2O[C@](F)(COC(=O)C(C)C)[C@@H](OC(=O)C(C)C)[C@H]2OC(=O)C(C)C)cn1	Severe acute respiratory syndrome coronavirus 2	viral replication, inhibitor	A549-ACE2	24 h	IC50	17.9 µM
C=C1CC[C@H]2C(=C)CC[C@H]3C(=C)C(=O)O[C@@H]3[C@@H]12	Severe acute respiratory syndrome coronavirus 2	cytopathic effect	Vero C1008	72 h	IC50	~0.844 µM
Cc1cnc(C(=O)N[C@H]2CCCCC/C=C\[C@@H]3C[C@@]3(C(=O)NS(=O)(=O)C3CC3)NC(=O)[C@@H]3C[C@@H](Oc4nc5ccccc5c5ccccc45)CN3C2=O)cn1	Severe acute respiratory syndrome coronavirus 2	viral replication, inhibitor	Vero C1008	48 h	IC50	6 µM
CCOc1nc(N)ncc1-c1cn([C@@H]2O[C@](F)(CO[P@@](=O)(N[C@@H](C)C(=O)OC(C)C)Oc3ccccc3)[C@@H](O)[C@H]2O)cn1	Severe acute respiratory syndrome coronavirus 2	viral replication, inhibitor	A549-ACE2	24 h	IC50	> 100 µM
